Measurements gathered from unrelated publications.
Each numbered part is a random draw from the data of one study; scales do not carry over between parts.
UniProt P29320, sequence (whole entry, looked up): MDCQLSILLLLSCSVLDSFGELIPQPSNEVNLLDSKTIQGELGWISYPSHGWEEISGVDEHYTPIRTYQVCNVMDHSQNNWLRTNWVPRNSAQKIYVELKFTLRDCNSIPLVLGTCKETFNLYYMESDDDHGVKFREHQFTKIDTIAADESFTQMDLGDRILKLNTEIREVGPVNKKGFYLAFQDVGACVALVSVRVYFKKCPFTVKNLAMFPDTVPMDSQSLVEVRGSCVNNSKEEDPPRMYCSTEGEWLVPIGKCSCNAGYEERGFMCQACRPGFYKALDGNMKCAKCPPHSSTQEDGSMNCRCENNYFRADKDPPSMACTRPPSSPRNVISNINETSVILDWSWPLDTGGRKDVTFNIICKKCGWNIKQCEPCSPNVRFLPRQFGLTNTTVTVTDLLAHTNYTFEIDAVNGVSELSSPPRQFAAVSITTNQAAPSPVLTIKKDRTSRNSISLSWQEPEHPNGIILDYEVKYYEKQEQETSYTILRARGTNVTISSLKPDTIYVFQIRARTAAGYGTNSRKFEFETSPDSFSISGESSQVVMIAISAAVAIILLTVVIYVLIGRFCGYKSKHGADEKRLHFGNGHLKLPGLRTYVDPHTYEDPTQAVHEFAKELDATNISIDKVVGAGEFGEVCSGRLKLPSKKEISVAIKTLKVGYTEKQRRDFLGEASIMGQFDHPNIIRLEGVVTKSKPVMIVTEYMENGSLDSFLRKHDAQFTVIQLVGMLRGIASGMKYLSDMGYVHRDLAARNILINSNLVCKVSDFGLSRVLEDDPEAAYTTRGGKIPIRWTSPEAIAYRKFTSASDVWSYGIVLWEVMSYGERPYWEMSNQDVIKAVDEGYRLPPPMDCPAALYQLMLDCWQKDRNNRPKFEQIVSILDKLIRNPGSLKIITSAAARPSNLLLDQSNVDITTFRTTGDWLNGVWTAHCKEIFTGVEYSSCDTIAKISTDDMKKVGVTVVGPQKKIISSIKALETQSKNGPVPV
UniProt P41743, sequence (whole entry, looked up): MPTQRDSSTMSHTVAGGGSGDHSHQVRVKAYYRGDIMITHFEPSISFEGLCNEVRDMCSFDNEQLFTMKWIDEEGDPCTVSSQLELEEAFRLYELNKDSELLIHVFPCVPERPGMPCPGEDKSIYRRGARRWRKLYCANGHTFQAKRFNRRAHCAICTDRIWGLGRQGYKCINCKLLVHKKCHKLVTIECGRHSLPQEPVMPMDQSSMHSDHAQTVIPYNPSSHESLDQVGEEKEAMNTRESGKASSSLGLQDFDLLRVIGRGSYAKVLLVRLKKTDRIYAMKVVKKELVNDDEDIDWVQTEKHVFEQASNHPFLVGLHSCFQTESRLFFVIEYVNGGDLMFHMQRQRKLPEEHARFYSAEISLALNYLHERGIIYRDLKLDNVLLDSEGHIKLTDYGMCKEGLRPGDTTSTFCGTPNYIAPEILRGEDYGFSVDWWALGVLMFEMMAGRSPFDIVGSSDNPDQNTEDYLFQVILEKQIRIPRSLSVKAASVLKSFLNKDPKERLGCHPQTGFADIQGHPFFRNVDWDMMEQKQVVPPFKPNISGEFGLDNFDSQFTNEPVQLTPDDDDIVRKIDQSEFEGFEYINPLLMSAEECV
UniProt P30291, sequence (whole entry, looked up): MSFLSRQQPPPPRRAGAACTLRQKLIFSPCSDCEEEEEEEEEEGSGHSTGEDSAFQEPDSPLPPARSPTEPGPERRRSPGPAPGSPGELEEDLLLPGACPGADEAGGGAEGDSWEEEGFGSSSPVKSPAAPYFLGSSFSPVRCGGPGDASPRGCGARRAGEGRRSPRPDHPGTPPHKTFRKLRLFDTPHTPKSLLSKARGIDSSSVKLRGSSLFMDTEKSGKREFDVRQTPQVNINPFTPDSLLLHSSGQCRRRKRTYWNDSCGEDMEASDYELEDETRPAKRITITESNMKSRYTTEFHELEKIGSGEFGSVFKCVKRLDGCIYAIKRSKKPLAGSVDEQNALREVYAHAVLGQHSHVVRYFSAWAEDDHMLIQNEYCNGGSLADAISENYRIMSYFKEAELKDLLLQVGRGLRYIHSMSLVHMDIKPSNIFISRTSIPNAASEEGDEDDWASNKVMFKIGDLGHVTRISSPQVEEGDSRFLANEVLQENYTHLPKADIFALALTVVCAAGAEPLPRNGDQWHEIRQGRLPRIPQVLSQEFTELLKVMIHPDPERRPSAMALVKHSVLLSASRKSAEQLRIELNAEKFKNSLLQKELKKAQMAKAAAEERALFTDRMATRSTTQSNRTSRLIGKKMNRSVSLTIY
UniProt Q04912, sequence (whole entry, looked up): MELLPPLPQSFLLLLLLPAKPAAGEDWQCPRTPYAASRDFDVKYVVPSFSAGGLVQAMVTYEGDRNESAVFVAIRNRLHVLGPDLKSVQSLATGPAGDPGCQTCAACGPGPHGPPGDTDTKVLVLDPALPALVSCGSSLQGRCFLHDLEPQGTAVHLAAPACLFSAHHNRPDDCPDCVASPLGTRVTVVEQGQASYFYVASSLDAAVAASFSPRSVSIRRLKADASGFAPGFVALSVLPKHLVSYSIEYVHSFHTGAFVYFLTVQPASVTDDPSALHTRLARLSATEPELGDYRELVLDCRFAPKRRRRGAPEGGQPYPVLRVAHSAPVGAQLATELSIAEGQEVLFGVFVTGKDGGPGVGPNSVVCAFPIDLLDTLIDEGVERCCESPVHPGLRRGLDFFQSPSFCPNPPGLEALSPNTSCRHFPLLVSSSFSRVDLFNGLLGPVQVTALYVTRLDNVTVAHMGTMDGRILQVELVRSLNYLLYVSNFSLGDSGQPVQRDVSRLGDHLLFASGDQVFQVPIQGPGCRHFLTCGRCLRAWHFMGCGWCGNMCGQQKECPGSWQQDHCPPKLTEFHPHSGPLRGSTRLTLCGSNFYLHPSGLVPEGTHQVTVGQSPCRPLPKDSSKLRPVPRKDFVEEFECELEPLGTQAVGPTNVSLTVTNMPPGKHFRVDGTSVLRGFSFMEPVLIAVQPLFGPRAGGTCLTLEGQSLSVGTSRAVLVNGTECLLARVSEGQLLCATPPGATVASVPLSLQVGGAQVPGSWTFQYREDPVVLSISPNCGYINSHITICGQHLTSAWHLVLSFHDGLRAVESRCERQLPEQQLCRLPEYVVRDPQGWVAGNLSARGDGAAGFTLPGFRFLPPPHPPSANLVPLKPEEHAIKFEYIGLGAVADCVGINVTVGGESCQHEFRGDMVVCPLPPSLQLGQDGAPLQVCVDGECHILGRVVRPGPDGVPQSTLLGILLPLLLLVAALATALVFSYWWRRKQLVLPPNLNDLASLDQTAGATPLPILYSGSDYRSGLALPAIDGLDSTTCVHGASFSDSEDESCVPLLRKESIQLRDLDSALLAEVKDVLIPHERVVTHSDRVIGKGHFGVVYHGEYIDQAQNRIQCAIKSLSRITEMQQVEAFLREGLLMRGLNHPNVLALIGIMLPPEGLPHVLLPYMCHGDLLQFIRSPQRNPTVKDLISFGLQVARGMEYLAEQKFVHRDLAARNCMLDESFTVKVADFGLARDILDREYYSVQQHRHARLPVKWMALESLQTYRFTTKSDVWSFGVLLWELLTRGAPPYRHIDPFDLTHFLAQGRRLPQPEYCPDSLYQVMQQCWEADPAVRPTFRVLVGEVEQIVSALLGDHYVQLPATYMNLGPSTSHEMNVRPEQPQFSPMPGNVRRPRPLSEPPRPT

Set 1 — read-out: cell-free assay; technique: competition with immobilised ligand; tested at: 1 µM; measurement: remaining binding
SMILES: COc1cc(-c2cn(C3CCc4ccccc4N(CC(F)(F)F)C3=O)nn2)ccc1-n1ccc(C)n1 (stereo not shown)
Insulin receptor (INSR, Homo sapiens, UniProt P06213): 69%
Receptor-type tyrosine-protein kinase FLT3 (FLT3, Homo sapiens, UniProt P36888, F691L/ITD): 80%
Protein kinase C iota type (PRKCI, Homo sapiens, UniProt P41743): 100%

Set 2 — technique: RNA Bind-n-Seq; molecule type: RNA; matrix: in vitro; tested at: 90 pmol; setting: 4-mer, random 30-nt RNA, single round; added: 3 µM DMDA-PatA, 2 mM ADP, 2 mM phosphate; baseline: input library; direction: higher = stronger binding; measurement: 4-mer enrichment
Target: Eukaryotic initiation factor 4A-I (EIF4A1, Homo sapiens, UniProt P60842, residues 1-406, full length assumed)
UniProt P60842, sequence (whole entry, looked up): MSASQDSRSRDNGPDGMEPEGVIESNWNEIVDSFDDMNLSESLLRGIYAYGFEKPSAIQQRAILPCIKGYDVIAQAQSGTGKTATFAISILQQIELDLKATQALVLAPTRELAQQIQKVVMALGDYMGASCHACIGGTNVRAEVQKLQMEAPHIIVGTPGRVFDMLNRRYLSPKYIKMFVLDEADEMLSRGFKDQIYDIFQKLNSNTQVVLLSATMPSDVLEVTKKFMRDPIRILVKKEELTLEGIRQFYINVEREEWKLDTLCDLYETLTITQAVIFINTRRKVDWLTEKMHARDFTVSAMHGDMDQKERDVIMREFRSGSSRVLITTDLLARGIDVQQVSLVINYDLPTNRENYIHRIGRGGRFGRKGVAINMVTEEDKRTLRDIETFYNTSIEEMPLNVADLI
AAGA: 1.16 fold
UAUA: 1.01 fold
CCCG: 0.641 fold
GUUC: 0.764 fold
CAUU: 0.749 fold
UAUU: 1.02 fold
ACGU: 0.704 fold
UGUU: 1.25 fold

Set 3 — technique: protein-binding microarray; molecule type: double-stranded DNA, one strand shown; matrix: in vitro; tested at: 2200 nM top; setting: 60-bp whole probe; added: salmon DNA 0.4 mg/ml; baseline: random background probes; direction: higher = stronger binding; measurement: fitted relative affinity; constant ends, left off below: GCCTAGCAC … GTCTTGATTCGCTTGACGCTGCTG
Target: Interferon regulatory factor 7, full length, phosphomimetic (IRF7, Homo sapiens, UniProt Q92985, residues 1-503, S471D/S472D/S475D/S476D/S477D/S483D/S484D/S487D)
UniProt Q92985, sequence (whole entry, unmodified, looked up): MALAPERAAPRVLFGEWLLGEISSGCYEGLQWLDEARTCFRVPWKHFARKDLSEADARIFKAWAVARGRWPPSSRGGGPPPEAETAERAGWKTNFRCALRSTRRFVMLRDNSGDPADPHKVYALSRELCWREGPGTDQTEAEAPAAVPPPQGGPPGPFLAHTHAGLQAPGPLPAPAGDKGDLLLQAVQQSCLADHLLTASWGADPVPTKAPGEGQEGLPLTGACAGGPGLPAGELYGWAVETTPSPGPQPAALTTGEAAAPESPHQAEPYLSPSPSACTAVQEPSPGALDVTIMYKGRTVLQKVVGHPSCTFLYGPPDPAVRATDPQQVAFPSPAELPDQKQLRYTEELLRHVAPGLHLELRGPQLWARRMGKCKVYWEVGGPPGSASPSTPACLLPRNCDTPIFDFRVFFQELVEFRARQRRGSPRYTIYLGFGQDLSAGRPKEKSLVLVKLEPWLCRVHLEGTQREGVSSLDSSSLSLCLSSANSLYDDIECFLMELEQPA
AGAGTCACCCATCTCAGCAAGTGCTAG: -0.0129 z-score
GACGCTTTCCTTTTCCTGACGTGCTAG: 6.43 z-score
TTAGATATCGGGTTTCGTTTAGTGCTA: 3.61 z-score
GTCTCTATCAAAAATACAAAAGTGCTA: -0.223 z-score
GACGATTTCAGTCTCGAGATGTGCTAG: 0.957 z-score
TTAGGTTTCCTACTGCTGTAGTGCTAG: 1.22 z-score
TGAGGTTTCGACTATCGGTTAGTGCTA: 2.87 z-score
TTAGGAATGCTTATCCTTTAGTGCTAG: 0.00706 z-score

Set 4 — read-out: enzyme activity; mode: inhibitor; tested at: 0.5 µM; baseline: control; measurement: remaining activity
SMILES: Cc1cncc2cccc(S(=O)(=O)N3CCCN(C(=O)CN)C[C@@H]3C)c12
Macrophage-stimulating protein receptor (MST1R, Homo sapiens, UniProt Q04912): 99.3%
Ephrin type-A receptor 3 (EPHA3, Homo sapiens, UniProt P29320): 98.7%
Wee1-like protein kinase (WEE1, Homo sapiens, UniProt P30291): 96.3%

Excerpt of the above (set 3):
GTCTCTATCAAAAATACAAAAGTGCTA: -0.223 z-score
GACGATTTCAGTCTCGAGATGTGCTAG: 0.957 z-score
